{"data": "Measurements gathered from unrelated publications", "note": "Values joined by “and” are separate records of one study, mostly repeats; a detail may differ. ± gives the spread as reported."}
{"Structure (SMILES)": "C[C@@H](O)[C@@H]1NC(=O)[C@H](CCCCN)NC(=O)[C@@H](Cc2c[nH]c3ccccc23)NC(=O)[C@H](Cc2ccccc2)NC(=O)[C@@H](NC(=O)[C@H](N)Cc2ccccc2)CSSC[C@@H](C(=O)N[C@H](CO)[C@@H](C)O)NC1=O", "test": "population PK model", "test system": "human, typical 75 kg", "conditions": "weight exponent 0.75 fixed", "endpoint": "inter-compartmental clearance", "value": "3.59 L/h"}
{"Structure (SMILES)": "COc1cccc(Oc2ccccc2NC(=O)CNC(=O)c2cccc3ccccc23)c1", "test system": "esterase-deficient SCID mice, male, blood", "conditions": "oral, 40 mg/kg/day, 14 days, toxicity study", "scale": "relative to: white cells", "endpoint": "basophils", "value": "0% and 1.6%"}
{"Structure (SMILES)": "O=S(=O)(Nc1ccccc1)c1ccc(NC(=S)Nc2ccccc2)cc1", "test system": "mouse, male, kidney", "conditions": "oral, 5 mg/kg daily, 14 days", "scale": "relative to: body weight", "endpoint": "relative organ weight", "value": "1.77%"}
{"Structure (SMILES)": "[O-][S+]1CCc2nc(N3CCC(c4ncc(Cl)cn4)CC3)nc(NC3(CO)CCC3)c21 (stereo not shown)", "test": "measured: Dizziness", "test system": "healthy male humans", "conditions": "6 mg twice daily", "endpoint": "adverse event incidence", "value": "0%"}
{"Structure (SMILES)": "Cn1cc(-c2nc(N[C@@H]3CCCC[C@@H]3N)c(F)c3c2C(=O)NC3)cn1", "test": "measured: Mouth haemorrhage", "test system": "patients with relapsed or refractory AML", "conditions": "oral, 100 mg once daily", "endpoint": "hemorrhagic adverse events", "value": "14%"}
{"Structure (SMILES)": "CC(C)[C@@H]1CC[C@@H](C)C[C@@H]1O", "test": "acute oral toxicity OECD", "test system": "Swiss albino mice, serum", "conditions": "oral, 300 mg/kg", "endpoint": "direct bilirubin", "value": "0.11 ± 0.04 mg/dL"}
{"Structure (SMILES)": "O=C(Nc1ccccc1)C1CCN(C(=O)Oc2cccnc2)CC1", "test": "Bond-Lader VAS", "test system": "healthy women", "conditions": "20 mg", "scale": "relative to: pre-dose baseline, direction not given", "endpoint": "change in calmness score", "value": 12}
{"Structure (SMILES)": "Cn1nccc1[C@]1(CNC(=O)c2ccc(F)c(F)c2-c2ccc(C(F)(F)F)cc2)NC(=O)NC1=O", "test system": "mouse", "conditions": "oral, 1.0 mg/kg", "endpoint": "dose-normalised AUC", "value": "2 kg·h/L"}
{"Structure (SMILES)": "COc1cc2c(Oc3ccc4[nH]c(C)cc4c3F)ccnc2cc1OCC1(N)CC1", "test system": "paediatric recurrent refractory sarcoma", "conditions": "10 mg", "endpoint": "grade 3 Diarrhoea", "value": "0%"}
{"Structure (SMILES)": "Cn1ncc(-c2nc(N[C@H]3CC[C@H](N)CC3)ncc2Cl)c1CC1CC1", "test": "phase I dose escalation", "test system": "human patients", "conditions": "dose not given, any-grade TEAE", "endpoint": "febrile neutropenia incidence", "value": "37%"}
{"Structure (SMILES)": "CCCCCCCCCCCCCCCC(=O)N[C@@H](CCC(=O)NCCCC[C@H](NC(=O)[C@H](CC(=O)O)NC(=O)[C@H](CO)NC(=O)[C@@H](NC(=O)[C@H](Cc1ccccc1)NC(=O)[C@@H](NC(=O)CNC(=O)[C@H](CCC(N)=O)NC(=O)[C@H](CO)NC(=O)[C@@H](N)Cc1c[nH]cn1)[C@@H](C)O)[C@@H](C)O)C(=O)N[C@@H](CO)C(=O)N[C@@H](CCC(=O)O)C(=O)N[C@@H](Cc1ccc(O)cc1)C(=O)N[C@@H](CC(C)C)C(=O)N[C@@H](CC(=O)O)C(=O)N[C@@H](CO)C(=O)N[C@@H](CCC(=O)O)C(=O)N[C@@H](CCCNC(=N)N)C(=O)N[C@@H](C)C(=O)N[C@@H](CCCNC(=N)N)C(=O)N[C@@H](CC(=O)O)C(=O)N[C@@H](Cc1ccccc1)C(=O)N[C@H](C(=O)N[C@@H](C)C(=O)N[C@@H](Cc1c[nH]c2ccccc12)C(=O)N[C@@H](CC(C)C)C(=O)N[C@@H](CCC(=O)O)C(=O)N[C@@H](C)C(=O)NCC(=O)NCC(=O)O)C(C)C)C(=O)O", "test": "measured: Hyperglycaemia", "test system": "humans all renal groups", "conditions": "subcutaneous, 100 µg single dose", "endpoint": "treatment-related adverse events", "value": "2.7%"}
{"Structure (SMILES)": "COc1ncccc1-c1cnn2ccc(N3CCN(C(=O)OC(C)C)CC3)nc12", "test system": "mouse nerve ligation model, plasma", "conditions": "oral, 10 mg/kg, 120 min after last dose, repeat dosing day 1", "endpoint": "drug concentration", "value": "2200 nM"}
{"Structure (SMILES)": "CC(C)(O)c1cc(Nc2cc(Oc3cn(C4CC4)nc3C3CCOCC3)ccn2)ccn1", "test system": "grade 4 glioma expansion cohort", "conditions": "oral, 50 mg", "endpoint": "headache, any grade", "value": "25%"}
{"Structure (SMILES)": "O=C(O)Cc1ccccc1Nc1c(Cl)cccc1Cl", "test system": "human liver microsomes 0.5 mg/mL", "conditions": "5 µM, 24 h", "endpoint": "fu,mic", "value": 1}
{"Structure (SMILES)": "Cc1ccccc1C(=O)NN=Cc1ccc(O)c(Br)c1", "test system": "normal C3H/HeN mouse, plasma", "conditions": "intravenous, 0.8 mg/kg", "endpoint": "C0", "value": "150 ng/mL"}
{"Structure (SMILES)": "NCCCC[C@@H]1NC(=O)[C@@H](Cc2c[nH]c3ccccc23)NC(=O)[C@H](c2ccccc2)NC(=O)[C@@H]2C[C@@H](OC(=O)NCCN)CN2C(=O)[C@H](Cc2ccccc2)NC(=O)[C@H](Cc2ccc(OCc3ccccc3)cc2)NC1=O", "test system": "healthy volunteers", "conditions": "subcutaneous, 600 µg twice daily, day 5, 1.00 h", "endpoint": "QTcI change from baseline", "value": "4.3 ms"}
{"Structure (SMILES)": "N=C(N)NCCC[C@@H](NC(=O)[C@@H](N)Cc1ccccc1)C(=O)N[C@@H](Cc1ccccc1)C(=O)N[C@@H](CCCCN)C(N)=O", "test": "LC-MS", "test system": "human", "conditions": "25 mg, 23.83 h", "endpoint": "mean amount excreted in urine", "value": "445000 ng"}
{"Structure (SMILES)": "Nc1nc2cc(-c3ccc4ncc(C(=O)N5CCOCC5)n4c3)ccc2o1", "test": "measured: Nausea, any cause, grade ≥3", "test system": "patients with advanced solid tumours", "conditions": "dose not given", "endpoint": "patients with adverse events", "value": "4%"}
{"Structure (SMILES)": "O=S(=O)([O-])C(F)(F)C(F)(F)C(F)(F)C(F)(F)C(F)(F)C(F)(F)C(F)(F)C(F)(F)F.[K+]", "test": "measured: GSH, lipid peroxidation", "test system": "male C57BL/6J mice, liver", "conditions": "concentration not given, alone or with EtOH", "endpoint": "oxidative stress markers", "value": "no effect"}
{"Structure (SMILES)": "C1=Cc2nc1cc1ccc([n-]1)c(-c1ccccc1)c1nc(cc3ccc([n-]3)c2-c2ccccc2)C=C1.CC(=O)[O-].[Mn+3]", "test": "LC-MS/MS", "test system": "Sprague-Dawley rat, plasma", "conditions": "oral gavage, dose not given, 360 min, individual rat Rat1", "endpoint": "plasma concentration", "value": "121 ng/mL"}
{"Structure (SMILES)": "COc1cccc2c1CCCC2CCCN1CCN(C2CCCCC2)CC1 (stereo not shown)", "test system": "CD-1 mouse, male, plasma", "conditions": "intraperitoneal, 30 mg/kg", "endpoint": "AUC(0-inf)", "value": "938 ng·h/mL"}
{"Structure (SMILES)": "CC1(C)[C@H](C(=O)OCc2cccc(Oc3ccccc3)c2)[C@@H]1C=C(Cl)Cl", "test": "measured: CYP2B6", "test system": "human, age 5 years, recombinant human CYP2B6", "conditions": "0.1 µM", "endpoint": "enzyme contribution to clearance", "value": "2.9%"}
{"Structure (SMILES)": "CC(C)n1c(C2CCNCC2)nc2c([N+](=O)[O-])c(Br)c(Br)cc21", "test system": "patients with AML", "conditions": "125 mg, fungal sinusitis", "endpoint": "AE leading to discontinuation", "value": "2%"}
{"Structure (SMILES)": "CC(=O)c1c(C)c2cnc(Nc3ccc(C4CCN(CCS(C)(=O)=O)CC4)cn3)nc2n(C2CCCC2)c1=O", "test system": "human, dose-escalation trial, plasma", "conditions": "oral, 100 mg twice daily, day 21, multiple doses", "endpoint": "clearance", "value": "1160 mL/min"}
{"Structure (SMILES)": "CC(C)CC(=O)OC[C@H]1O[C@@](C#N)(c2ccc3c(N)ncnn23)[C@H](O)[C@@H]1O", "test system": "Dogs plasma", "conditions": "5 µM, 30 min", "endpoint": "remaining compound", "value": "97.4 ± 0.513%"}
{"Structure (SMILES)": "C[C@H]1COCCN1c1nc(NCc2cccnc2C(F)(F)F)c2cccnc2n1", "test system": "conscious rat", "conditions": "intravenous, 30 mg/kg", "scale": "relative to: control", "endpoint": "QRS change", "value": "26.9%"}
{"Structure (SMILES)": "CCc1ccc(CC/C=C/c2ccc3c(c2)C(=O)CC3)cc1", "test system": "Sprague-Dawley rat, female", "conditions": "oral, 120 mg/kg/day, 14 days", "endpoint": "ALP serum activity", "value": "92 U/L"}
{"Structure (SMILES)": "C=CCNc1c(O)cc2c(O)c1C[C@@H](C)C[C@H](OC)[C@H](O)[C@@H](C)/C=C(\\C)[C@H](OC(N)=O)[C@@H](OC)/C=C\\C=C(/C)C(=O)N2", "test system": "unresectable or metastatic STS, GIST, other", "conditions": "intravenous, 150 mg/m^2", "endpoint": "patients with back pain TEAE", "value": "67%"}
{"Structure (SMILES)": "O=C(O)CCCOc1ccc(F)cc1-c1cc(-c2ccccc2C(F)(F)F)n(-c2ccccc2)n1", "test": "measured: thyroid", "test system": "Crl:CD(SD) rats, female", "conditions": "iv, 25 µg/kg, 1 day", "endpoint": "relative organ weight", "value": "8 ± 0.9 mg%"}
{"Structure (SMILES)": "CO[C@H]1C[C@@H]2CC[C@@H](C)[C@@](O)(O2)C(=O)C(=O)N2CCCC[C@H]2C(=O)O[C@H]([C@H](C)C[C@@H]2CC[C@@H](OC(=O)NCCOCCOCCOCCOCCOCCOCCOCCOCCC(=O)N3CCc4cc(Cn5nc(-c6ccc7oc(N)nc7c6)c6c(N)ncnc65)ccc4C3)[C@H](OC)C2)C[C@@H](O)[C@H](C)/C=C(\\C)[C@@H](O)[C@@H](OC)C(=O)[C@H](C)C[C@H](C)/C=C/C=C/C=C/1C", "test": "phase 1 dose escalation, measured: diarrhoea", "test system": "advanced solid tumour patients", "conditions": "intravenous, 8 mg weekly, grade ≥3", "endpoint": "TRAE incidence", "value": "0%"}
{"Structure (SMILES)": "C[C@]1(CO)Cc2ncn(-c3ccc(C#N)c(Cl)c3)c2C(=O)O1", "test system": "human", "conditions": "all doses, European multiple ascending dose", "endpoint": "drug-related urine abnormality", "value": "2.2%"}
{"Structure (SMILES)": "O=C(Nc1ccc2c(c1)B(O)OC2)c1cccc(OCc2c(Cl)cccc2Cl)c1", "test": "PAMPA", "test system": "pre-coated trilayer membrane", "conditions": "200 µM, 5 h, pH 7.4, donor plate, PBS", "endpoint": "donor concentration", "value": "177 ± 11.7 µM"}
{"Structure (SMILES)": "C[C@@H](NC(=O)N1C(=O)[C@H](Cc2ccnc(N)c2)[C@H]1C(=O)O)C1CCCCC1", "test system": "healthy Chinese adult volunteers", "conditions": "continuous intravenous infusion, dose not given, 5.0 days, CTCAE 5.0, all doses", "endpoint": "drug-related adverse events", "value": "10%"}
{"Structure (SMILES)": "CN1CCN(S(=O)(=O)c2cc([N+](=O)[O-])ccc2N(CCOS(C)(=O)=O)CCOS(C)(=O)=O)CC1", "test system": "naive NOD/SCID mice, pooled blood", "conditions": "intraperitoneal, 18.8 mg/kg, week 4", "endpoint": "calcium", "value": "2.7 mmol/L"}
{"Structure (SMILES)": "CC(C)C[C@H](NC(=O)[C@H](CCCCN)NC(=O)OCC1c2ccccc2-c2ccccc21)C(=O)N[C@H](C(=O)N[C@@H](Cc1ccccc1)C(=O)N[C@@H](Cc1ccccc1)C(=O)N[C@@H](CCCCN)C(=O)NCC(=O)N[C@@H](Cc1ccccc1)C(=O)N[C@@H](C)C(=O)N[C@@H](Cc1c[nH]c2ccccc12)C(=O)N[C@@H](CC(N)=O)C(=O)N[C@H](C(=O)N[C@H]1CSSC[C@@H](C(=O)N[C@@H](Cc2c[nH]cn2)C(=O)N[C@@H](CCCNC(=N)N)C(=O)N[C@@H](CCCNC(=N)N)C(=O)N[C@@H](C)C(=O)N[C@@H](CC(N)=O)C(N)=O)NC(=O)[C@H](C(C)C)NC(=O)[C@H](CCCNC(=N)N)NC(=O)[C@H](C(C)C)NC(=O)CNC(=O)[C@H](CC(N)=O)NC(=O)[C@H](CCCNC(=N)N)NC(=O)[C@H](Cc2ccc(O)cc2)NC(=O)[C@H](C(C)C)NC1=O)C(C)C)C(C)C", "test": "HPLC", "test system": "mouse kidney homogenate", "conditions": "2560 µM, 8.00 h, 37 °C, 50 mg/mL tissue", "endpoint": "remaining peptide", "value": "53% and 56.3% and 55.4%"}
{"Structure (SMILES)": "COc1ccc2nc3cc(Cl)ccc3c(Nc3cc(CN4CCCC4)c(O)c(CN4CCCC4)c3)c2n1", "test system": "mouse, blood", "conditions": "intraperitoneal, 57 mg/kg", "endpoint": "red blood cell count", "value": "8.13 10¹²/L"}
{"Structure (SMILES)": "NC(=O)[C@H]1CCN(c2ncnc(N)c2F)C[C@@H]1N1CCC[C@@H](Nc2cc(Cl)cc(C(F)(F)F)c2)C1=O", "test system": "B-cell malignancy patients", "conditions": "oral, 410 mg twice daily, dose", "endpoint": "grade ≥3 leukopenia", "value": "0%"}
